Results pooled from the literature.
Numbers after ± are the reported error.
MAL12: Alpha-glucosidase MAL12 (MAL12, Saccharomyces cerevisiae S288c, UniProt P53341)
Sequence of UniProt P53341 (whole entry, looked up): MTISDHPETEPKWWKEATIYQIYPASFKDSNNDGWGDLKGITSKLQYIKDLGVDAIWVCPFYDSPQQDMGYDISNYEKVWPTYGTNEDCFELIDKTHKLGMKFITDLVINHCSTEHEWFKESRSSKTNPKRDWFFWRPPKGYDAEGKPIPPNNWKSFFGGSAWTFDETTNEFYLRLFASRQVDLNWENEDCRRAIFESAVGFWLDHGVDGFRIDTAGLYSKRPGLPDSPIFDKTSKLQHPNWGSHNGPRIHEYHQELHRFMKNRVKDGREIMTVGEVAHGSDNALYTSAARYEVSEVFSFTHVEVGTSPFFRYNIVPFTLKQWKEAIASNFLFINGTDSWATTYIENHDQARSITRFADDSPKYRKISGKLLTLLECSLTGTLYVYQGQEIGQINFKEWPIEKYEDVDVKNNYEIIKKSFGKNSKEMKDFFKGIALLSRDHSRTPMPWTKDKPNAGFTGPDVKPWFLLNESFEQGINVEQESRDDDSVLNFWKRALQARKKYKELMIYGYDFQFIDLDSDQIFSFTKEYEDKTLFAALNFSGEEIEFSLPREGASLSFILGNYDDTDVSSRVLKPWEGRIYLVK
WWOX WW1 domain: WW domain-containing oxidoreductase, WW1 domain (WWOX, Homo sapiens, UniProt Q9NZC7)
Sequence of UniProt Q9NZC7 (whole entry, unmodified, looked up): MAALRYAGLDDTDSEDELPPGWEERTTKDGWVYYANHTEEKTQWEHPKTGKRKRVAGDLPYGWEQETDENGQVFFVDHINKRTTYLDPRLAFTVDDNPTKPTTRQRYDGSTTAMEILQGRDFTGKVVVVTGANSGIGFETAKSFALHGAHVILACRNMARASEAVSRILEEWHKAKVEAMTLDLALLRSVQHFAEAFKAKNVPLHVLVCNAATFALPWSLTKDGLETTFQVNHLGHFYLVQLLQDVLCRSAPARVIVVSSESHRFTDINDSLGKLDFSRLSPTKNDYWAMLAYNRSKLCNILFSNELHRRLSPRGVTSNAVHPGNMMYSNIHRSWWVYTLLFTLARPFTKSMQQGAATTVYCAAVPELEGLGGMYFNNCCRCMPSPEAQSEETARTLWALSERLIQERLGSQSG
SCN9A: Sodium channel protein type 9 subunit alpha (SCN9A, Homo sapiens, UniProt Q15858)
Sequence of UniProt Q15858 (whole entry, looked up): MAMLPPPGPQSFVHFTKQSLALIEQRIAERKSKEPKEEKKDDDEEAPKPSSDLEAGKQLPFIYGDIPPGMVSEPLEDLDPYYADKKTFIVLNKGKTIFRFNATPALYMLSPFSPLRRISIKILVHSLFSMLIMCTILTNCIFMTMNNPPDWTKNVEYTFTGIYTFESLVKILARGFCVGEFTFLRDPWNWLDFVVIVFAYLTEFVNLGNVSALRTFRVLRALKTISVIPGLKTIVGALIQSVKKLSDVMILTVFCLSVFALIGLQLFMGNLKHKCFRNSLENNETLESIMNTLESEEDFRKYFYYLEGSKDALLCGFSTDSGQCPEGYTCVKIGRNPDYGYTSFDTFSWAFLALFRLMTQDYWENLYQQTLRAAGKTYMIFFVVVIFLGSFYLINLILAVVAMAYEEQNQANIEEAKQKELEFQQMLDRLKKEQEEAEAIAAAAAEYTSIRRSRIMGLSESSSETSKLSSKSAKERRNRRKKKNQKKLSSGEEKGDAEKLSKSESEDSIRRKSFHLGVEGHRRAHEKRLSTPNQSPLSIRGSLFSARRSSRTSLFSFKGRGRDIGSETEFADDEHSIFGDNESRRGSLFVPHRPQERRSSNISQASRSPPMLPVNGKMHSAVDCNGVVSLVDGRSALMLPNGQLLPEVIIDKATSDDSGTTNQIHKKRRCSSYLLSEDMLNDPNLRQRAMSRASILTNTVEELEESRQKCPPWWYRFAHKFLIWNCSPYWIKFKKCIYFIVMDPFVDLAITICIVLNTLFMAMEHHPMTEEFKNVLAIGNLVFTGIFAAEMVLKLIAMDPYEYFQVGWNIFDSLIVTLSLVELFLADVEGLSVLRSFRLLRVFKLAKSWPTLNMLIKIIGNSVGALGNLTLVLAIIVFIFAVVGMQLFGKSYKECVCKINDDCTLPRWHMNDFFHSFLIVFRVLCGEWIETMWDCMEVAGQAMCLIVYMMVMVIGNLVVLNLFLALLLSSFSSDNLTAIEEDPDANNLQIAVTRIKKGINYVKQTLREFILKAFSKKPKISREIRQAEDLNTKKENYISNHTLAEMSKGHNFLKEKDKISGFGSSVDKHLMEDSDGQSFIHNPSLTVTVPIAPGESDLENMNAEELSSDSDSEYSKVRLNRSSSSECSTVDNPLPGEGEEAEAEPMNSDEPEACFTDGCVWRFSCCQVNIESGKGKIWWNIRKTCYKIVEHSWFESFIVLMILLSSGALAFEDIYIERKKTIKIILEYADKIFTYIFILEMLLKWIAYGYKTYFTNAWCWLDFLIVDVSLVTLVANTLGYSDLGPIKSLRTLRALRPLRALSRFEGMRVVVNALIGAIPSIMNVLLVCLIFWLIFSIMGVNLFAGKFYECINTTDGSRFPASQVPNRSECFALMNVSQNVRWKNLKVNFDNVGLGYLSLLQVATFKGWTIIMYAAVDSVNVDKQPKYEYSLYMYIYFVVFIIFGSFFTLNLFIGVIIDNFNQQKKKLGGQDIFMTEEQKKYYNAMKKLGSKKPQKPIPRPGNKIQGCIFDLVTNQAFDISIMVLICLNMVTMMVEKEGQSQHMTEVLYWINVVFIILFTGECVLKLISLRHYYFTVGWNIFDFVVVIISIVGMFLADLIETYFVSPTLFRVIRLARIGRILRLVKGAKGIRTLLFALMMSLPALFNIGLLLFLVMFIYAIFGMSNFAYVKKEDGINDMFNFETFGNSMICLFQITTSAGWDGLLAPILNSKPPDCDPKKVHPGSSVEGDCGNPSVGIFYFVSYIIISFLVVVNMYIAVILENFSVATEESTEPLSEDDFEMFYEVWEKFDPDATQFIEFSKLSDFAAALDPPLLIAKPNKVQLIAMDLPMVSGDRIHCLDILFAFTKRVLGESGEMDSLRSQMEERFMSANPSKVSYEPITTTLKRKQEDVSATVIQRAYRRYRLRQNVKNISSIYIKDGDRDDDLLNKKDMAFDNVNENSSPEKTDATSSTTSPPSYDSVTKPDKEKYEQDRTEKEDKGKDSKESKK
HBA1 with beta chain: Hemoglobin subunit alpha, with beta chain (HBA1, Homo sapiens, UniProt P69905)
Sequence of UniProt P69905 (whole entry, looked up): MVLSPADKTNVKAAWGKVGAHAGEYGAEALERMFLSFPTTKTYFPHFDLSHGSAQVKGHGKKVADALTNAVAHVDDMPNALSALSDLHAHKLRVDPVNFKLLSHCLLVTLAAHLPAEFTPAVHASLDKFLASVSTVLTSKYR
T1: RNA repeat, r(CGG) repeat (Homo sapiens); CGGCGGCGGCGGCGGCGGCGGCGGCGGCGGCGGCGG
Sequence of UniProt Q62645 (whole entry, looked up): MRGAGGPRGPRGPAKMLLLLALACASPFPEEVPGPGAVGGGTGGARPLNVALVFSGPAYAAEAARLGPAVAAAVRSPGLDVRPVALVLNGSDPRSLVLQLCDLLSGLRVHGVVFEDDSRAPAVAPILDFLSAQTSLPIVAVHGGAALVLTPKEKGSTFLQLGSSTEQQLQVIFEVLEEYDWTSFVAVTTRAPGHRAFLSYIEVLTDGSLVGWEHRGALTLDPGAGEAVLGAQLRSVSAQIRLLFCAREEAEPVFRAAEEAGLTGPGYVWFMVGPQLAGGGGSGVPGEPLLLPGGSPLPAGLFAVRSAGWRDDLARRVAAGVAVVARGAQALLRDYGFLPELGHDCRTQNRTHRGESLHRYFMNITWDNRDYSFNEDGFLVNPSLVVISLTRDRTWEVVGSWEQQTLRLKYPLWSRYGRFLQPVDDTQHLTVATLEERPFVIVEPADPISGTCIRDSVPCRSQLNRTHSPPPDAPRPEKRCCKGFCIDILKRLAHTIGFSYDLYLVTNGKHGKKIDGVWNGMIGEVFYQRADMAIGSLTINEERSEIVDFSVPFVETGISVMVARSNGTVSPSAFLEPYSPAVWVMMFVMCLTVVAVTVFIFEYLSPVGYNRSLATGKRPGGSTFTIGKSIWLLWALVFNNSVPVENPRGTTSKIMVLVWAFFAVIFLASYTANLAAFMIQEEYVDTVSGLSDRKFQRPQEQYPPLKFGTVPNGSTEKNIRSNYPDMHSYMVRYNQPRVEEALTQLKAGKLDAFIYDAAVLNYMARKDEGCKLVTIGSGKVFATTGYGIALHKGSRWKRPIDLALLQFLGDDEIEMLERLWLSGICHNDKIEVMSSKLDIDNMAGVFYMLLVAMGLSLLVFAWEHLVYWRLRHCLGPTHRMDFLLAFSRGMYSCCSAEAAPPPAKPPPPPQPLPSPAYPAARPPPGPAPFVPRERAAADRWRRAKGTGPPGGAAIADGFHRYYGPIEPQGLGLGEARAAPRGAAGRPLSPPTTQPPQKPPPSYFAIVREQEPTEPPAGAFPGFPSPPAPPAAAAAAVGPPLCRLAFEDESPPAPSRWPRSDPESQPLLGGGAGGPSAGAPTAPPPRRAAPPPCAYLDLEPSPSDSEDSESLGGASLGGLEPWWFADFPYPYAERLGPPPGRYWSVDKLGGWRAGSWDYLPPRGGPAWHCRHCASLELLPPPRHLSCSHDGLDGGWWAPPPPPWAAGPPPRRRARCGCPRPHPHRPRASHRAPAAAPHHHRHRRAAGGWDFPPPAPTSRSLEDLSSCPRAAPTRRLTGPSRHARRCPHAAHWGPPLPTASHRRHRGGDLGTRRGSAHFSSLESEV
Sequence of UniProt Q01727 (whole entry, looked up): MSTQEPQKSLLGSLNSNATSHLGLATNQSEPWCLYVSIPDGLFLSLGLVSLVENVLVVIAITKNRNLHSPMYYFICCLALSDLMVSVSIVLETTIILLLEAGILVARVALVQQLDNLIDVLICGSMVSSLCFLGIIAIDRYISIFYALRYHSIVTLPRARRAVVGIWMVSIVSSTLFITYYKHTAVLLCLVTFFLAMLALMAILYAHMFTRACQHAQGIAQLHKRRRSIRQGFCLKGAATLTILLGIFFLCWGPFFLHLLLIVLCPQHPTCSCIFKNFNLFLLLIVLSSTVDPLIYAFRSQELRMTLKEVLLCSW

Substance | target | test | test system | conditions | scale | endpoint | value
COc1c(O)ccc2c(=O)cc(-c3ccccc3)oc12 | MAL12 | enzyme activity, inhibitor |  | 10 µM, with: p-nitrophenyl α-D-glucopyranoside |  | inhibition | < 1%
COc1ccc(OCC2c3cc(OC)c(OC)cc3CCN2C(=O)c2cccc(Cl)c2)cc1 (centres unmarked) | Glutamate receptor ionotropic, NMDA 2D, with NR1 (Rattus norvegicus, UniProt Q62645) | NR1/NR2D channel, single channel recording |  | 10 µM | reference: control | open probability | 190%
RCTKLEYDPRCVYDP | human IgE | peptide microarray | peptide, walnut-allergic patient sera | concentration not given, 16 h, 4 °C |  | patients with IgE binding | 50%
Clc1cccc(Nc2nnc(-c3ccccc3)c3ccccc23)c1 | PDE1C (Homo sapiens, UniProt Q14123) | cGMP hydrolysis, inhibitor, fluorescence polarization | recombinant enzyme | up to 100 µM, 30 min preincubation, 30 °C, with: TAMRA-cGMP 25 nM |  | IC50 | inactive
CC(C)C[C@H](NC(=O)[C@@H](NC(=O)[C@@H](N)[C@@H](C)O)C(C)C)C(=O)N1CCC[C@H]1C(=O)N1CCC[C@H]1C(=O)N1CCC[C@H]1C(=O)N[C@@H](C)C(=O)N[C@@H](Cc1ccc(O)cc1)C(=O)N[C@@H](CCCNC(=N)N)C(=O)N[C@@H](Cc1c[nH]cn1)C(=O)N[C@@H](CCCNC(=N)N)C(=O)N[C@@H](CC(N)=O)C(=O)O | WWOX WW1 domain | binding to WW1 domain, isothermal titration calorimetry |  | pH 7.0, 25 °C |  | entropy term TΔS | 1.21 ± 0.37 kcal/mol
C[N+](C)(C)C[C@@H](O)CC(=O)[O-] | SLC22A5 (Homo sapiens, UniProt O76082) | transporter uptake, inhibitor |  | 100 µM |  | inhibition | 83.7%
CC1=CC(=O)c2ccccc2C1=O | Heme oxygenase 2 (HMOX2, Homo sapiens, UniProt P30519) | enzyme activity, activator |  | 25 µM |  | induction | 8
CSCC[C@H](NC(=O)[C@@H]1CCCN1C(=O)[C@@H](NC(=O)[C@H](Cc1ccc(O)cc1)NC(=O)[C@H](C)NC(=O)[C@@H]1CCCN1C(=O)[C@@H]1CCCN1C(=O)[C@@H]1CCCN1C(=O)[C@H](CO)NC(=O)[C@H](Cc1c[nH]cn1)NC(=O)CN)[C@@H](C)O)C(=O)N[C@@H](CO)C(=O)O | WW domain-containing oxidoreductase, WW1-WW2 tandem domains (WWOX, Homo sapiens, UniProt Q9NZC7) | binding, ITC |  | pH 7.0, 25 °C |  | ΔG | -5.13 ± 0.05 kcal/mol
COc1ccc(-c2cc(=O)c3ccc(O)cc3o2)cc1 | MAL12 | enzyme activity, inhibitor, absorbance |  | 50 µM |  | inhibition | 16.3%
CC(=O)N[C@@H](Cc1c[nH]c2ccccc12)C(=O)N[C@H](Cc1cccc2ccccc12)C(=O)N[C@@H](CCCNC(=N)N)C(=O)N[C@@H](Cc1c[nH]c2ccccc12)C(N)=O | Melanocortin receptor 3 (Mus musculus, UniProt P33033) | receptor activity, agonist, cell-based |  | up to 100 µM, Schild antagonism analysis |  | agonist and antagonist activity | inactive
Nc1ccc2cccc(O)c2n1 | PY04617 (Plasmodium yoelii, UniProt Q7RFT5) | ultrafiltration HPLC-UV |  | 0.1 mM, pH 7.25, 4 °C, 6.5% DMSO, with: methionine competitor |  | UV signal reduction | 91.5 ± 1.4%
CCCCN1CCN(C(C)C(=O)Nc2c(C)csc2C(=O)OC)CC1 (centres unmarked) | SCN9A | cell membrane chromatography |  |  | higher = stronger binding | capacity factor k′ | 163
CC(=O)N[C@@H]1[C@@H](O)[C@H](O[C@@H]2O[C@H](CO)[C@@H](O[C@@H]3O[C@H](CO[C@H]4O[C@H](CO[C@H]5O[C@H](CO)[C@@H](O)[C@H](O)[C@@H]5O)[C@@H](O)[C@H](O[C@H]5O[C@H](CO)[C@@H](O)[C@H](O)[C@@H]5O)[C@@H]4O)[C@@H](O)[C@H](O[C@H]4O[C@H](CO)[C@@H](O)[C@H](O)[C@@H]4O)[C@@H]3O)[C@H](O)[C@H]2NC(C)=O)[C@@H](CO)O[C@H]1NC(=O)C[C@H](N)C(=O)O | NT1 (Nicotiana tabacum, UniProt Q94EW1) | glycan binding, glycan array |  | with: Alexa 488-labelled lectin 150 µg/mL |  | fluorescence | 18900 RFU
O=C(O)[C@H]1O[C@@H](O[C@H]2c3cc4ccc5cccc6c7ccccc7c(c3C=C[C@@H]2O)c4c56)[C@H](O)[C@@H](O)[C@@H]1O (relative stereo) | UGT1A7 (Homo sapiens, UniProt Q9HAW7) | glucuronidation, substrate | UGT-expressing HEK293 homogenate | normalized to UGT expression |  | kcat | 0.00015 ± 5e-05 s⁻¹
CC(=O)N[C@H](Cc1ccc2ccccc2c1)C(=O)N[C@@H](CCCNC(=N)N)C(=O)N[C@@H](Cc1c[nH]c2ccccc12)C(=O)N[C@@H](CCCNC(=N)N)C(N)=O | Mc1r (Mus musculus, UniProt Q01727) | cAMP, agonist, AlphaScreen | HEK293 |  |  | Emax | 40%
O=c1c(O)c(-c2cc(O)c(O)c(O)c2)oc2cc(O)cc(O)c12 | Kcnh1 (Mus musculus, UniProt Q60603) | inside-out patch clamp | Xenopus oocytes | 10 µM |  | V1/2 shift | -8 ± 5.7 mV
N[C@@H](CCC(=O)O)C(=O)O | Protein tweety homolog 2 (Ttyh2, Mus musculus, UniProt Q3TH73) | permeant anion, whole-cell patch clamp | HEK-293T co-expressing AQP4 | 70 mM, hypo-osmotic solution | reference: compound over chloride | permeability ratio | ~0.26
CC(=O)OCc1ccc(C=O)o1 | HBA1 with beta chain | refers to: haemoglobin A adduct | human normal whole blood | 2000 µM, 24 h, hematocrit 30% |  | peak modification | 23.8%
CN(C)c1ccc(C=CC(=O)O)cc1 | Peptidylglycine alpha-amidating monooxygenase, PHM domain (Pam, Rattus norvegicus, UniProt P14925) | inactivator |  | pH 6.0, 37 °C, with: 5.0 mM ascorbate |  | kinact | 0.00133 ± 0.000167 s⁻¹
CC1=C(C(=O)OCc2ccccc2)C(c2ccc(-c3ccccc3)cc2)N(Cc2ccc(-c3nnn[nH]3)cc2)C(=S)N1 (centres unmarked) | HSPA1A (Homo sapiens, UniProt P0DMV8) | ATPase activity, inhibitor |  | 100 µM, without Hsp40 | reference: DMSO, negative means inhibition | fold change in activity | -1.7 fold
CC(C)C[C@H](NC(=O)[C@@H](NC(=O)[C@@H](N)[C@@H](C)O)C(C)C)C(=O)N1CCC[C@H]1C(=O)N1CCC[C@H]1C(=O)N1CCC[C@H]1C(=O)N1CCC[C@H]1C(=O)N[C@@H](Cc1ccc(O)cc1)C(=O)N[C@@H](CCCNC(=N)N)C(=O)N[C@@H](Cc1c[nH]cn1)C(=O)N[C@@H](C)C(=O)N[C@@H](CC(N)=O)C(=O)O | WWOX WW1 domain | binding to WW1 domain, isothermal titration calorimetry |  | concentration not given, pH 7.0, 25 °C |  | binding enthalpy ΔH | -4.78 ± 0.26 kcal/mol

Substance | target | test | test system | conditions | scale | endpoint | value
CSc1ccc(/C=C2/C(C)=C(CC(=O)O)c3cc(F)ccc32)cc1 | Dual specificity calcium/calmodulin-dependent 3',5'-cyclic nucleotide phosphodiesterase 1B (Homo sapiens, UniProt Q01064) | cAMP hydrolysis, inhibitor, IMAP fluorescence polarization |  | up to 200 µM |  | IC50 | inactive
PPCPAPELLGGPSVFLFP | FcγRI | binding, ELISA | peptide | 16.6, 5.53, 1.84 µM, 2 h, 24 °C, with: human IgG1 1.3 µM |  | competition with IgG1 | no inhibition
CC/C=C\CCOC(C)=O | chemosensory protein 3 (Chilo suppressalis, UniProt V9PY40) | binding, competitive ligand, fluorescence competitive binding |  | highest concentration tested, pH 7.4, protein 2 µM, with: 1-NPN 2 µM | reference: no ligand | remaining 1-NPN fluorescence | 65 ± 2.53%
COC(=O)c1scc(C)c1NC(=O)C(C)N1CCCCC1 (centres unmarked) | SCN9A | cell membrane chromatography |  |  | higher = stronger binding | capacity factor k′ | 10.6
Cc1cc(C(C)(C)CC(C)(C)C)ccc1OCCOCC[N+](C)(C)Cc1ccccc1 | Alpha-synuclein, oligomers (SNCA, Homo sapiens, UniProt P37840) | oligomer-vesicle binding, FIDA |  | 5 µM, with: 150 nM oligomers, 50 µM DOPG liposomes |  | liposome-bound oligomers | 0%
BzATP | P2X purinoceptor 7 (P2rx7, Rattus norvegicus, UniProt Q64663) | ion current, whole-cell patch clamp | HEK293, transfected | with: after agonist washout, Ca2+ medium |  | decay time constant τ1 | 2.8 ± 0.5 s
CCCNC(C)C(=O)Nc1c(C)csc1C(=O)OCC(C)C (centres unmarked) | SCN9A | cell membrane chromatography |  |  | higher = stronger binding | capacity factor k′ | 4.4
CC(C)(C)OCc1ccc(C=O)o1 | HBA1 with beta chain | refers to: haemoglobin A adduct | human normal whole blood | 2000 µM, 24 h, hematocrit 30% |  | peak modification | 6.3%
CC[C@H](C)[C@H](NC(=O)[C@@H]1CCCN1C(=O)[C@@H]1CCCN1C(=O)[C@@H]1CCCN1C(=O)[C@@H](NC(=O)[C@H](CC(N)=O)NC(=O)[C@@H](N)Cc1ccccc1)[C@@H](C)CC)C(=O)N[C@@H](Cc1ccc(O)cc1)C(=O)N[C@H](C(=O)N[C@@H](CO)C(=O)N[C@@H](CCCNC(=N)N)C(=O)N[C@@H](C)C(=O)O)[C@@H](C)O | WW domain-containing oxidoreductase, WW2 domain Y85W (WWOX, Homo sapiens, UniProt Q9NZC7, Y85W) | binding, ITC |  | pH 7.0, 25 °C |  | ΔG | -4.33 ± 0.11 kcal/mol
COc1cc2c(=O)c(OC)c(-c3ccccc3)oc2c(O)c1OC | MAL12 | enzyme activity, inhibitor, absorbance |  | 100 µM |  | inhibition | 96.8%
Ac-KIVTSAK (N-acetyl) | Alpha-synuclein (SNCA, Homo sapiens, UniProt P37840) | fibril formation, thioflavin T fluorescence | peptide | 2 molar equivalents, 16 h, 37 °C, 1.5 % HFIP, with: α-synuclein 100 µM | reference: untreated | remaining aggregation | ≥ 90%
COc1c(-c2ccc(O)cc2)oc2c(OC)c(O)cc(O)c2c1=O | MAL12 | enzyme activity, inhibitor, absorbance |  | 25 µM |  | inhibition | 96.3%
CC(C)C[C@@H](N)[C@H](O)C(=O)N[C@H](C(=O)N[C@H](C(=O)N[C@@H](CC(=O)O)C(=O)O)C(C)C)C(C)C | Glutamyl aminopeptidase (Enpep, Rattus norvegicus, UniProt P50123) | inhibitor, MALDI-TOF MS | isolated rat glomeruli | 100 µM, 60 min, 37 °C, with: ANG-I 1 µM |  | ANG-(2-10) formation | 11.6 ± 1.7 pg/glomerulus
CCCCCCCCCCCCCCCC(=O)OC[C@H](COP(=O)(O)OC[C@H](N)C(=O)O)OC(=O)CCCCCNc1ccc([N+](=O)[O-])c2nonc12 | spg-20 (Caenorhabditis elegans, UniProt O44735) | native gel NBD fluorescence |  | concentration not given, 2 h, on ice, NBD-labelled compound |  | lipid binding stoichiometry | ~1 lipids per protein
CC(C)CC(NC(=O)C(CC(N)=O)NC(=O)C(CC(C)C)NC(=O)C(NC(=O)C(NC(=O)C1CCCN1C(=O)C(N)CCCNC(=N)N)C(C)O)C(C)O)C(=O)NCC(=O)NCC(=O)NCCCNC(=O)c1ccc(-c2n[nH]c3ccccc23)cc1 (centres unmarked) | MAPK8 (Homo sapiens, UniProt P45983) | inhibitor, DELFIA displacement |  | concentration not given, with: staurosporine 0.5 µM | reference: without staurosporine | loss of binding competition | 600 fold
O=C1/C(=C/c2ccc(O)c(O)c2)Oc2cc(O)cc(O)c21 | Xanthine dehydrogenase/oxidase, oxidase form (XDH, Bos taurus, UniProt P80457) | intrinsic fluorescence quenching |  | 298, 304, 310 K |  | bimolecular quenching constant | > 2e+10 L/mol/s
CN1CCN(c2ccc3[nH]c(-c4ccc5[nH]c(-c6cccc(OCCCC(=O)NCCCN=[N+]=[N-])c6)nc5c4)nc3c2)CC1 | T1, RNA repeat, r(CGG) repeat (Homo sapiens) | DGCR8 displacement, competitor, TR-FRET |  | pH 7.5, 110 mM KCl, with yeast tRNA, with: DGCR8 protein |  | IC50 | 33 µM
CCCCCC(=O)/C=C/C=O | HSPA5 (Homo sapiens, UniProt P11021) | ATPase activity, covalent inhibitor |  | 1 h preincubation, pH 7.4, 37 °C, estimated value, with: ATP 0.1 mM |  | IC50 | 43.9 µM
COc1cc2oc(-c3ccc(O)cc3)cc(=O)c2c(O)c1OC | MAL12 | enzyme activity, inhibitor, absorbance |  | 100 µM |  | inhibition | 97.5%
KACESRCTKLEYDPR | human IgE | peptide microarray | peptide, peanut-allergic patient sera | concentration not given, 16 h, 4 °C |  | patients with IgE binding | 50%

Excerpt of the above:
Substance | target | test | test system | conditions | scale | endpoint | value
O=c1c(O)c(-c2cc(O)c(O)c(O)c2)oc2cc(O)cc(O)c12 | Kcnh1 (Mus musculus, UniProt Q60603) | inside-out patch clamp | Xenopus oocytes | 10 µM |  | V1/2 shift | -8 ± 5.7 mV
CSCC[C@H](NC(=O)[C@@H]1CCCN1C(=O)[C@@H](NC(=O)[C@H](Cc1ccc(O)cc1)NC(=O)[C@H](C)NC(=O)[C@@H]1CCCN1C(=O)[C@@H]1CCCN1C(=O)[C@@H]1CCCN1C(=O)[C@H](CO)NC(=O)[C@H](Cc1c[nH]cn1)NC(=O)CN)[C@@H](C)O)C(=O)N[C@@H](CO)C(=O)O | WW domain-containing oxidoreductase, WW1-WW2 tandem domains (WWOX, Homo sapiens, UniProt Q9NZC7) | binding, ITC |  | pH 7.0, 25 °C |  | ΔG | -5.13 ± 0.05 kcal/mol
Clc1cccc(Nc2nnc(-c3ccccc3)c3ccccc23)c1 | PDE1C (Homo sapiens, UniProt Q14123) | cGMP hydrolysis, inhibitor, fluorescence polarization | recombinant enzyme | up to 100 µM, 30 min preincubation, 30 °C, with: TAMRA-cGMP 25 nM |  | IC50 | inactive
